Published values collected from several papers.
Parts stem from different laboratories: compare values within a part only. Positions count from the first letter of the parent shown.

Block 1
Molecule: PhoQ, residues 284 288 289 292 302 303 SNGLAW
Method: Sort-seq
Measured: YFP reporter
Matrix: E. coli
Setting: PhoQ-PhoP variant library
With: 10 µM Mg2+
Baseline: high Mg2+ state
Reading: higher = stronger signaling
PhoP, residues 12 14 15 18 19 ICWRQ (Escherichia coli, UniProt P23836) — fold induction: 15.8.
PhoP, residues 12 14 15 18 19 VHTVL (Escherichia coli, UniProt P23836) — fold induction: 5.1.
PhoP, residues 12 14 15 18 19 TQCLL (Escherichia coli, UniProt P23836) — fold induction: 4.24.

Block 2
Target: Hepatocyte nuclear factor 3-beta, forkhead domain (FOXA2, Homo sapiens, UniProt Q9Y261, residues 142-269)
Method: protein-binding microarray
Molecule type: double-stranded DNA, one strand shown
Matrix: in vitro
Tested at: not given
Setting: k-mer, scored over probes, only values ≥0.25
Reading: higher = stronger binding
Target sequence (chain): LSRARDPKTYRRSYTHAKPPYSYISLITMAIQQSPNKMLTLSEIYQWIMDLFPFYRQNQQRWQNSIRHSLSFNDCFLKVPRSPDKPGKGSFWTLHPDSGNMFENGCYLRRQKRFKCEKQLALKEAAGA
With `ACAAACAC` the E-score was 0.391.
`ACGTTATG` gave an E-score of 0.259.
For `ATGTTATG`, the E-score was 0.315.
The E-score of `GACAGATA` is reported as 0.287.
`AACTACTA` gave an E-score of 0.293.
The E-score of `AATTAACA` is reported as 0.328.
`ATTAACAC` gave an E-score of 0.375.
The E-score of `GTATAATA` is reported as 0.335.
`AAGGATAT` has an E-score of 0.275.
With `ATATTGAT` the E-score was 0.353.
For `GTCAACAA`, the E-score was 0.365.
With `ACACTGAA` the E-score was 0.277.
`ATATTGAC` has an E-score of 0.36.
`GTATATCA` has an E-score of 0.306.
`TAATAATA` gave an E-score of 0.275.
With `AAATAGAC` the E-score was 0.303.
With `ATAACAAA` the E-score was 0.297.
The E-score of `ATAAACAT` is reported as 0.312.
`GTTAATGA` has an E-score of 0.252.
The E-score of `ATTATTCA` is reported as 0.3.
For `ATTGTATA`, the E-score was 0.352.

Block 3
Target: Histone acetyltransferase KAT6A, winged helix 1, GST fusion (KAT6A, Homo sapiens, UniProt Q92794, residues 1-85)
Method: protein binding microarray
Molecule type: double-stranded DNA, one strand shown
Matrix: in vitro
Tested at: not given
Setting: 8-mer, flanks averaged, mean of 2 arrays, mostly near background
Baseline: not given
Reading: higher = stronger binding
Construct (chain): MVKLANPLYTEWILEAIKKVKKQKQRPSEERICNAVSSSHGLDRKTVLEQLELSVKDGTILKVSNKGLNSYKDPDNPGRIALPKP
With `CTGTGCAC` the E-score was 0.101.
With `GGTTCAGA` the E-score was -0.21.
The E-score of `AATACAAT` is reported as -0.108.
For `ATTGTACA`, the E-score was -0.0361.
`ATAACTAC` gave an E-score of -0.0124.
The E-score of `AGTTTGCA` is reported as -0.204.
The E-score of `AGCAGAGG` is reported as -0.21.
`ACAGTCCC` gave an E-score of 0.114.
With `GAATGTCC` the E-score was -0.0553.
`CTCTAATC` has an E-score of 0.00123.
`TGGCAGAA` gave an E-score of -0.119.
`GTTACGCA` has an E-score of 0.25.
`AGAACCTC` has an E-score of 0.113.
The E-score of `ATAACCAT` is reported as -0.105.
The E-score of `AGTCAGCA` is reported as -0.0711.
With `GGGCCGTA` the E-score was 0.312.
With `CCAGATGC` the E-score was -0.225.

Block 4
Target: ABI1, truncated, D143A, DHFR fusion (Arabidopsis thaliana)
Method: DHFR PCA, deep sequencing
Matrix: yeast
Setting: methotrexate growth selection, single substitutions
With: (+)-ABA 0.0091 µM
Baseline: wild-type fitted maximum
Reading: higher = stronger binding
Parent: PYL1, truncated, DHFR fusion (Arabidopsis thaliana); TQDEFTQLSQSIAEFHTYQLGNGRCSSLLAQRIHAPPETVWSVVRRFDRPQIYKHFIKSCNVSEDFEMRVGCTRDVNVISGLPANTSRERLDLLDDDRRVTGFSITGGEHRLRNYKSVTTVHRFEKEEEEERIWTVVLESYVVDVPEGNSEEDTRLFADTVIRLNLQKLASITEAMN; partner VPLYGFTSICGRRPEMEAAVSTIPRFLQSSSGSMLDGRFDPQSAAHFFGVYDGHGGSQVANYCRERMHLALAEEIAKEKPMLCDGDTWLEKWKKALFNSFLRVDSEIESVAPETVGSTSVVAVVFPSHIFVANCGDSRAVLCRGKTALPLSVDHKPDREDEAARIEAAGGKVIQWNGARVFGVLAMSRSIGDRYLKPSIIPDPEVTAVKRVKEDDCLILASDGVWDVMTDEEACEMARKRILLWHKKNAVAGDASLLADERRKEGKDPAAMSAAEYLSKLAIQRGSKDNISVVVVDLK
Under “relative binding score”, `V142C` is recorded as 27%.
Under “relative binding score”, `L82Y` is recorded as 45.6%.
`V40A`: “relative binding score” 0.923%.
`D97I` — result for “relative binding score”: 11.4%.
`C25P` — result for “relative binding score”: 3.35%.
Under “relative binding score”, `I172N` is recorded as -1.02%.
For `F47S`, “relative binding score” read 17.1%.
Under “relative binding score”, `W134T` is recorded as 37.8%.
For `L156P`, “relative binding score” read 0.0323%.
`S59T` — result for “relative binding score”: 10.4%.
Under “relative binding score”, `W134S` is recorded as 47.3%.
For `V121G`, “relative binding score” read -1.27%.
`G81K` — result for “relative binding score”: 1.27%.
For `D153C`, “relative binding score” read -2.18%.
`S59H` — result for “relative binding score”: 3.7%.
`I33R`: “relative binding score” 3.3%.

Repeated from above (block 3):
The E-score of `AGCAGAGG` is reported as -0.21.
`ACAGTCCC` gave an E-score of 0.114.
With `GAATGTCC` the E-score was -0.0553.
`CTCTAATC` has an E-score of 0.00123.
`TGGCAGAA` gave an E-score of -0.119.
`GTTACGCA` has an E-score of 0.25.
